# Measured values collected from several papers.
# Protocols differ between the studies behind these lines. Numbers after ± are the reported error.
# Cell line: MCF7
Structure (SMILES),test,conditions,IC50 [µM]
O=C(CN1CCCCC1)N1CCN(CC(OCc2ccc3ccccc3c2)c2ccc(Cl)cc2Cl)CC1 (stereo not shown),"cell growth or viability, MTT",24 h,17.6
Cc1nc(N(C)c2ccc3c(c2)/C(=C/c2ccccc2)C(=O)N3C)c2ccccc2n1,"cell growth or viability, MTT",,0.89
Cc1c(COc2cc(OCc3cccc(C#N)c3)c(CN3CCCC[C@H]3C(=O)O)cc2Cl)cccc1-c1cccc(OCCCCCC(=O)NO)c1,"cell growth or viability, CCK-8",48 h,16.1
O=C1Nc2ccccc2C12NC(c1ccc(Cl)c(Cl)c1)C1(C(=O)Nc3ccccc31)N2Cc1ccc(Cl)c(Cl)c1 (stereo not shown),"cell growth or viability, MTT",48 h,42.1
Cc1ccc(-c2ccc(C)cn2)nc1.[Co+2].[O-]c1c(I)cc(Cl)c2cccnc12.[O-]c1c(I)cc(Cl)c2cccnc12,"cell growth or viability, MTT",48 h,15.1
O=[N+]([O-])c1ccc(C=NNC(=S)Nc2ccccc2)o1,"cell growth or viability, resazurin",,> 100
Nc1ncc(-c2nc(N3CCOCC3)nc(N3CCN(C(=O)CCC(=O)NCCCCCCCCCCCCNc4cccc5c4C(=O)N(C4CCC(=O)NC4=O)C5=O)CC3)n2)c(C(F)F)n1 (stereo not shown),"inhibitor, In-Cell Western, measured: Akt pSer473",2 h,0.029
Cc1c(COc2cc(OCc3cccc(C#N)c3)c(CN3CCCC[C@H]3C(=O)O)cc2Cl)cccc1-c1cccc(OCCCCCCC(=O)NO)c1,"cell growth or viability, CCK-8",48 h,> 20
O=C(CCc1ccco1)N1C(=O)C2(NC(c3ccc(F)cc3)C3(C(=O)Nc4ccccc43)N2Cc2ccc(F)cc2)c2ccccc21 (stereo not shown),"cell growth or viability, MTT",48 h,50.2
CCOc1cncc(-c2ccc(NC(=O)C3(c4ccnc(NS(=O)(=O)C5CC5)n4)CCOCC3)nc2)n1,"cell growth or viability, ATP luminescence",72 h,0.035
CC(C)(C)OC(=O)N1CCN(CC(OCc2ccc(Cl)cc2)c2ccc(Cl)cc2Cl)CC1 (stereo not shown),"cell growth or viability, MTT",24 h,26.3
O=C(O)C(CO)NCc1cc(Cl)c(OCc2cccc(-c3ccccc3)c2Br)cc1OCc1cccnc1 (stereo not shown),"cell growth or viability, MTT",,> 10
C=CCc1c(O)cc2c(c1O)C(=O)CC(c1ccc(O)cc1)O2 (stereo not shown),"cytotoxicity, MTT","48 h, from log IC50",114
C[C@]12CC[C@@H]3c4ccc(OS(=O)(=O)Oc5ccc6ccc(=O)[nH]c6c5)cc4CC[C@H]3[C@@H]1CCC2=O,,72 h,5
CNC(NN=Cc1ccc([N+](=O)[O-])o1)=[S+][Au-][Cl],"cell growth or viability, resazurin",,28.1
O=C1/C(=N\c2cccc(Cl)c2)c2ccccc2N1Cc1ccccc1,"cell growth or viability, MTT",48 h,7.45
O=C(CN1CCOCC1)N1CCN(CC(OCc2ccc3ccccc3c2)c2ccc(Cl)cc2Cl)CC1 (stereo not shown),"cell growth or viability, MTT",24 h,> 50
O=C([O-])CC(=O)[O-].[W+4].c1cc[cH-]c1.c1cc[cH-]c1,"cell growth or viability, MTT",,410
CN1C(=O)CCC(N2C(=O)c3cccc(NCCCCCCCCCNC(=O)CCC(=O)N4CCN(c5nc(-c6cnc(N)nc6C(F)F)nc(N6CCOCC6)n5)CC4)c3C2=O)C1=O (stereo not shown),"inhibitor, In-Cell Western, measured: Akt pSer473",2 h,0.125
O=C1CS/C(=N\N=C\c2cccc3cc4ccccc4nc23)N1c1ccccc1,"cell growth or viability, MTT",48 h,> 50
Clc1ccc(C(Cn2cnc3ccccc32)OCc2ccc(Br)cc2)c(Cl)c1 (stereo not shown),"cell growth or viability, MTT",24 h,42.9
CC(=O)[O][Pd][c]1cc(Cl)ccc1N1N=C(C)C(C)(C)C1=O.CC(=O)[O][Pd][c]1cc(Cl)ccc1N1N=C(C)C(C)(C)C1=O,"cell growth or viability, MTT",,> 100
CSc1sc2c3ccccc3c3ccccc3[n+]2c1C(=O)c1ccccc1,"cell growth or viability, MTT",72 h,17
CN(C)c1ccc(/C=C/c2cc(/C=C3\Sc4ccccc4N3CCCN3CCCC3)c3ccccc3[n+]2C)cc1,"cell growth or viability, MTT",36 h,4.35
COc1ccc(COC[C@](O)(CNCc2ccc(F)cc2)[C@@H]2CC[C@@H](C)C[C@H]2OCc2ccc(OC)cc2)cc1,"cell growth or viability, MTT",72 h,1.32
CCC(=CCc1c(O)cc2c(c1O)C(=O)CC(c1ccc(O)cc1)O2)CC (stereo not shown),"cytotoxicity, MTT","48 h, as reported",20.6 ± 3.9
CC(C)=CC1OC(C)(C)C2C=C3C(=O)C(Cl)=CC(O)C3C3C(O)C4OC4C(=O)C132 (stereo not shown),"cell growth or viability, MTS",,> 20
C[C@H]1[C@H](C)CC[C@]2(C)CC[C@]3(C)C(=CC(=O)[C@@H]4[C@@]5(C)CC[C@@H](O)[C@](C)(C(=O)O)[C@@H]5CC[C@]43C)[C@H]12,"cell growth or viability, MTT",24 h,122
CC(C)CN(CC(=O)N1CCN(CC(OCc2ccc3ccccc3c2)c2ccc(Cl)cc2Cl)CC1)CC(C)C (stereo not shown),"cell growth or viability, MTT",24 h,4.69
Cc1ccnc(-c2cc(C)ccn2)c1,"cell growth or viability, MTT",48 h,> 50
CCOC(=O)/C=C1\S/C(=N\N=C\c2cccc3cc4ccccc4nc23)N(C)C1=O,"cell growth or viability, MTT",48 h,> 50
NC(=O)c1ccc(-c2ccccc2Cl)c2c3c([nH]c12)CC[C@H](N)C3,cell growth or viability,,0.0288
O=C1/C(=N\c2ccccc2Br)c2ccccc2N1Cc1ccc([N+](=O)[O-])cc1,"cell growth or viability, MTT",48 h,2.9
CCOC(=O)/C=C1\S/C(=N\N=C\c2cccc3cc4ccccc4nc23)N(c2ccc([N+](=O)[O-])cc2)C1=O,"cell growth or viability, MTT",48 h,> 50
CCN1CCN(CC(=O)N2CCN(CC(OCc3ccc4ccccc4c3)c3ccc(Cl)cc3Cl)CC2)CC1 (stereo not shown),"cell growth or viability, MTT",24 h,> 50
CCC(=CCc1c(O)cc2c(c1O)C(=O)CC(c1ccc(OC)c(O)c1)O2)CC (stereo not shown),"cell growth or viability, MTT",48 h,18.2
O=C1/C(=N\c2ccc(Cl)cc2Br)c2ccccc2N1Cc1cccc(Cl)c1 (mixture of isomers),"cell growth or viability, MTT",48 h,7.39
O=C(CCC(=O)N1CCN(c2nc(N3CCOCC3)nc(-n3c(C(F)F)nc4ccccc43)n2)CC1)NCCCCCC(=O)Nc1cccc2c1C(=O)N(C1CCC(=O)NC1=O)C2=O (stereo not shown),"inhibitor, In-Cell Western, measured: Akt pSer473",2 h,2.51
CC(C)(C)OC(=O)N1CCN(CC(OCc2ccc(Br)cc2)c2ccc(Cl)cc2Cl)CC1 (stereo not shown),"cell growth or viability, MTT",24 h,24.1
CCOC(=O)/C=C1\S/C(=N\N=C\c2cccc3cc4ccccc4nc23)N(c2ccc(F)cc2)C1=O,"cell growth or viability, MTT",48 h,> 50
Cc1ccc2c(Cl)cc(Cl)c([O-])c2n1.Cc1ccc2c(Cl)cc(Cl)c([O-])c2n1.Cc1ccnc(-c2cc(C)ccn2)c1.[Co+2],"cell growth or viability, MTT",48 h,10.3
CC(=O)N[C@@H](CCCNC(=N)N)C(=O)N[C@@H](Cc1c[nH]c2ccccc12)C(=O)N[C@@H](CCCNC(=N)N)C(=O)N[C@@H](Cc1c[nH]c2ccccc12)C(=O)N[C@@H](CCCNC(=N)N)C(=O)N[C@@H](Cc1c[nH]c2ccccc12)C(N)=O,cell viability,"48 h, light irradiation 2.5 min",> 100
c1ccc(-c2ccnc3c2ccc2c(-c4ccccc4)ccnc23)cc1,"cell growth or viability, MTT",48 h,> 50
COc1ccccc1/C=C1\C(=O)N(C)c2ccc(Nc3nc(C)nc4ccccc34)cc21,"cell growth or viability, MTT",,9.73
COc1cccc(CNC[C@@](O)(COCc2ccccc2)[C@@H]2CC[C@@H](C)C[C@H]2OCc2ccccc2)c1,"cell growth or viability, MTT",72 h,1.48
Clc1ccnc2c1ccc1c(Cl)ccnc12.[Co+2].[O-]c1c(Br)cc(Br)c2cccnc12.[O-]c1c(Br)cc(Br)c2cccnc12,"cell growth or viability, MTT",48 h,20.1

# Repeated from above:
Structure (SMILES),test,conditions,IC50 [µM]
Nc1ncc(-c2nc(N3CCOCC3)nc(N3CCN(C(=O)CCC(=O)NCCCCCCCCCCCCNc4cccc5c4C(=O)N(C4CCC(=O)NC4=O)C5=O)CC3)n2)c(C(F)F)n1 (stereo not shown),"inhibitor, In-Cell Western, measured: Akt pSer473",2 h,0.029
Cc1c(COc2cc(OCc3cccc(C#N)c3)c(CN3CCCC[C@H]3C(=O)O)cc2Cl)cccc1-c1cccc(OCCCCCCC(=O)NO)c1,"cell growth or viability, CCK-8",48 h,> 20
O=C(CCc1ccco1)N1C(=O)C2(NC(c3ccc(F)cc3)C3(C(=O)Nc4ccccc43)N2Cc2ccc(F)cc2)c2ccccc21 (stereo not shown),"cell growth or viability, MTT",48 h,50.2
CCOc1cncc(-c2ccc(NC(=O)C3(c4ccnc(NS(=O)(=O)C5CC5)n4)CCOCC3)nc2)n1,"cell growth or viability, ATP luminescence",72 h,0.035
CC(C)(C)OC(=O)N1CCN(CC(OCc2ccc(Cl)cc2)c2ccc(Cl)cc2Cl)CC1 (stereo not shown),"cell growth or viability, MTT",24 h,26.3
